# Measurements of several laboratories.
# Each line is one published result; not all experiments were run side by side. ± marks the error that the study gave.
# 4'-phosphopantetheinyl transferase PptT: 4'-phosphopantetheinyl transferase PptT (Mycobacterium tuberculosis, UniProt O33336)
# Chain of UniProt O33336 (whole entry, looked up): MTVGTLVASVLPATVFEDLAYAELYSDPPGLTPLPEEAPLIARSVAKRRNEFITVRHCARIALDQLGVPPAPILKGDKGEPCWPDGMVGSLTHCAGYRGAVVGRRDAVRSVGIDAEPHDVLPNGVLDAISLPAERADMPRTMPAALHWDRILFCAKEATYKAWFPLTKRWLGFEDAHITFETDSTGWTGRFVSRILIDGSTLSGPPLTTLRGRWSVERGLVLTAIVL
# Slc6a4: Sodium-dependent serotonin transporter (Slc6a4, Rattus norvegicus, UniProt P31652)
# Chain of UniProt P31652 (whole entry, looked up): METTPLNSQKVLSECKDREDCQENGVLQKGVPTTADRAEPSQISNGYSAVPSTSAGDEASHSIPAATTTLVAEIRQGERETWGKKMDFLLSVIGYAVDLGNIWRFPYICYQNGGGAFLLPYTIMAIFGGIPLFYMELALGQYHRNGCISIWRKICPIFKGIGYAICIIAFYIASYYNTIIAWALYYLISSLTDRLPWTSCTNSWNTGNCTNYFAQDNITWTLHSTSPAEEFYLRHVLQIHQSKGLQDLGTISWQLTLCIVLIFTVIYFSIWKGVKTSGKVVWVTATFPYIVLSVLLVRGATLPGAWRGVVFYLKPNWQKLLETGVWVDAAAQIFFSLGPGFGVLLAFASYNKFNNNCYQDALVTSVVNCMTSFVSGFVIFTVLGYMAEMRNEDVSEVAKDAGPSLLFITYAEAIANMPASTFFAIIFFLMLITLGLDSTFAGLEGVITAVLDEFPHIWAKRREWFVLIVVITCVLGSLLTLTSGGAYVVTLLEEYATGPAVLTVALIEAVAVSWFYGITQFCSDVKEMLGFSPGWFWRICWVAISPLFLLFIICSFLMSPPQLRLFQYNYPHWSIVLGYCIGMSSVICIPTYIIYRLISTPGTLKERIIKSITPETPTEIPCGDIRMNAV
# CHRM1: Muscarinic acetylcholine receptor M1 (CHRM1, Homo sapiens, UniProt P11229)
# Chain of UniProt P11229 (whole entry, looked up): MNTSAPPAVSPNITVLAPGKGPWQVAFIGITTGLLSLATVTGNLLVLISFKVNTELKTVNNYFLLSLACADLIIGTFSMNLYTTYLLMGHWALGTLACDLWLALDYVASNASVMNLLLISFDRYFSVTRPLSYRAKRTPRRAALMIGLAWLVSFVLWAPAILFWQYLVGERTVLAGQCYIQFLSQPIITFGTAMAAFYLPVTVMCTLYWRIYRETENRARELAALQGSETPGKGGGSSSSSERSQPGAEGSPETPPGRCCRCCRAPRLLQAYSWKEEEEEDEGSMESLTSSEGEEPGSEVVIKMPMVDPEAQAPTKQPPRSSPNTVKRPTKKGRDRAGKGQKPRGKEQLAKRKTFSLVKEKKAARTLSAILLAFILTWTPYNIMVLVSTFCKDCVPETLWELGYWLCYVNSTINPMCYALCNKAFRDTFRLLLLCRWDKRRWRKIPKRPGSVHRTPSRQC
# Chain of UniProt P9WQN9 (whole entry, looked up): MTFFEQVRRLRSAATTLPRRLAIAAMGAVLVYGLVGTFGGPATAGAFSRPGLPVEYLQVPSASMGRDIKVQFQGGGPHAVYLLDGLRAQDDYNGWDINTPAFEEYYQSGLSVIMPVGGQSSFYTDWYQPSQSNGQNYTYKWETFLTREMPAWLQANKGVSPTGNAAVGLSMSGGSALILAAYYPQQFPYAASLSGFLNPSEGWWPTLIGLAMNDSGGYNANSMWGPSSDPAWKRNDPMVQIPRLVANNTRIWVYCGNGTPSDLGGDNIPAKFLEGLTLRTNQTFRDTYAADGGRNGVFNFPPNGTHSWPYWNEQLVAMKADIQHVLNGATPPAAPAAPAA
# Chain of UniProt Q9HAC7 (whole entry, looked up): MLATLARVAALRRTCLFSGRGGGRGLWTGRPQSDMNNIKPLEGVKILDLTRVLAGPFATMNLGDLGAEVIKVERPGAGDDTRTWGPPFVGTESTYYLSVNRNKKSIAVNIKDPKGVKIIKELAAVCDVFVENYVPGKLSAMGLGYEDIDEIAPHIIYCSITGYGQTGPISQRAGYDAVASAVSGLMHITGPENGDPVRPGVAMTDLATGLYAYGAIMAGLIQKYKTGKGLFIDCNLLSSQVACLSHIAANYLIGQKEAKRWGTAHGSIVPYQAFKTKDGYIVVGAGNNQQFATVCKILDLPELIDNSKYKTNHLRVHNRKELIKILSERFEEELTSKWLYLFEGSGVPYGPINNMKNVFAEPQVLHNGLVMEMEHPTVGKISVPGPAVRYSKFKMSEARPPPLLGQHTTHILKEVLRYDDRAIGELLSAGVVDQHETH
# Chain of UniProt P20309 (whole entry, looked up): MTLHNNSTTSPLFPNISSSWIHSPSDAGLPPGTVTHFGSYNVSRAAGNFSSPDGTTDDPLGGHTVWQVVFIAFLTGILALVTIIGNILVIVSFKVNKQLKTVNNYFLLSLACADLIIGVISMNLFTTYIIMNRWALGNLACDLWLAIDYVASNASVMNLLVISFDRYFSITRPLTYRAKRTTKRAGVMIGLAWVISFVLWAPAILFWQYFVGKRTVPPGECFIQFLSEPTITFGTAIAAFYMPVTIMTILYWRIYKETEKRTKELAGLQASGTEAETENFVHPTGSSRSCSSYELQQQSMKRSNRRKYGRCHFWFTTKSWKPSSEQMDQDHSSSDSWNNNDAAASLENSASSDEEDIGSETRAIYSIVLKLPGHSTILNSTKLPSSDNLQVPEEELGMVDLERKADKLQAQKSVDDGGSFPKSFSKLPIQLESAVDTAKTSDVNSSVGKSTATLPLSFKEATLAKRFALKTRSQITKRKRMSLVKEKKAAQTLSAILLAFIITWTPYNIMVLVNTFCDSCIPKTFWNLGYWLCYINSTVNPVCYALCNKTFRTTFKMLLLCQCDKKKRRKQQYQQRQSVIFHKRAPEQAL
# Chain of UniProt Q92800 (whole entry, looked up): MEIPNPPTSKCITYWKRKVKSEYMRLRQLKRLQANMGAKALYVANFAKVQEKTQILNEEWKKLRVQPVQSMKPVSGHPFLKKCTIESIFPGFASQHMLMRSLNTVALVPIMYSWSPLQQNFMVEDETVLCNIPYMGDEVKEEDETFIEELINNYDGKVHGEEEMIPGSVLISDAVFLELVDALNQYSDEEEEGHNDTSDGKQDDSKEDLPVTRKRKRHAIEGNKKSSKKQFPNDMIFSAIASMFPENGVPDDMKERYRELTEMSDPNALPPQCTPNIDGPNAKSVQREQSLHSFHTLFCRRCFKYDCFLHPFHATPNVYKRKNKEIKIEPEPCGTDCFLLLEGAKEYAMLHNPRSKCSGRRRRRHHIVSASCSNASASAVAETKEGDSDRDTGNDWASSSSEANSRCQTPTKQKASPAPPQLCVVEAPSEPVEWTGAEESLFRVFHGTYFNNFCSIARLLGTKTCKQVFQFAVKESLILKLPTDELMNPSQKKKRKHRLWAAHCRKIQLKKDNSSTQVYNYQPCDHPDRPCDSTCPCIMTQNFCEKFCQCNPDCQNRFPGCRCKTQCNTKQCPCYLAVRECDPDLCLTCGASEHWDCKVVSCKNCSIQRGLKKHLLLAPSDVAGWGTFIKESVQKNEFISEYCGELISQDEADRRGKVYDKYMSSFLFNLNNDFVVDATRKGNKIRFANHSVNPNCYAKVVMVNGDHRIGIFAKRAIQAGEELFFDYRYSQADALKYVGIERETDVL
# Chain of UniProt P11509 (whole entry, looked up): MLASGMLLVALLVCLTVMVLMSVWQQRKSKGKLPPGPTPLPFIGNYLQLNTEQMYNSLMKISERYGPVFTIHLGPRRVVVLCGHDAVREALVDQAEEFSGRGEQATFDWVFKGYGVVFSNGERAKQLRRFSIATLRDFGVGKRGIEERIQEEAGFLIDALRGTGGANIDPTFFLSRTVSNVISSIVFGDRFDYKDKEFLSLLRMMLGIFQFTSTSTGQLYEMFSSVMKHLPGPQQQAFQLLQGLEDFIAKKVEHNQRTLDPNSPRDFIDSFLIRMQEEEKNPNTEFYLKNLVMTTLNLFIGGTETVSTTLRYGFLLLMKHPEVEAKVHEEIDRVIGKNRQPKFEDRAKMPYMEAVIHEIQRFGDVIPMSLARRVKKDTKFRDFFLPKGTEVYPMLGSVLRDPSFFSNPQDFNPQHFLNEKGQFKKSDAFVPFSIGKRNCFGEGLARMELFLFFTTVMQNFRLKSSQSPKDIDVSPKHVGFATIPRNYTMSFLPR
# Chain of UniProt Q8NET8 (whole entry, unmodified, looked up): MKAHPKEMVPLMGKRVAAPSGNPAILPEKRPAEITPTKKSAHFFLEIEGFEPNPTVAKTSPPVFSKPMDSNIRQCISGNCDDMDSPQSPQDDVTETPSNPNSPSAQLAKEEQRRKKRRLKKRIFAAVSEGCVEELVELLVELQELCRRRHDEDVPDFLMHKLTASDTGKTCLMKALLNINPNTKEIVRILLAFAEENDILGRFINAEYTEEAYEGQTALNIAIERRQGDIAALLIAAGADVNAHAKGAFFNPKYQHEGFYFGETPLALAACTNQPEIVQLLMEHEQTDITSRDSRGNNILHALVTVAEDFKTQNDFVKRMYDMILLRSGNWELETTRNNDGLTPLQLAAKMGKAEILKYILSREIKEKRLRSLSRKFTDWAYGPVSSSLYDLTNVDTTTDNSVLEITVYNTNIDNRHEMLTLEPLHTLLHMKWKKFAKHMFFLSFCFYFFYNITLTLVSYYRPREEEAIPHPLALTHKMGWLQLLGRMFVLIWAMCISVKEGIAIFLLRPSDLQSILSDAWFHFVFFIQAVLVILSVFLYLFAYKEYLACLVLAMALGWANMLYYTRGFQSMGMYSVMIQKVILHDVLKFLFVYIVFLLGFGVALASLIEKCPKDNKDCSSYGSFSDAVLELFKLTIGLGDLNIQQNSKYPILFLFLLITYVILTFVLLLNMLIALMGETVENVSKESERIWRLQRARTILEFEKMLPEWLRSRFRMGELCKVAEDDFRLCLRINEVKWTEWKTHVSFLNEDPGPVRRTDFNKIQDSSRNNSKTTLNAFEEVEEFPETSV
SMILES,target,assay,test system,conditions,quantity,value
CCNC(=N)NC(=O)Nc1ccc(Cl)cc1,4'-phosphopantetheinyl transferase PptT,inhibitor,,,IC50,> 100 µM
CCCc1cc(O)c2c(c1)OC(C)(C)[C@@H]1CCC(C)=C[C@@H]21,"TRPV3 (Homo sapiens, UniProt Q8NET8, R693F)","calcium uptake, agonist",HEK293S,"mutant R693F, site 3",EC50,20.1 ± 4.9 µM
CCCCCCCCCCCC(CC1OC(=O)C1C(C)C)OC(=O)C(CC(C)C)NC(=O)OCc1ccccc1 (stereo not shown),"fbpC (Mycobacterium tuberculosis, UniProt P9WQN9)","enzyme activity, inhibitor, 4-MUH hydrolysis fluorescence",,"pH 7.5, 4 mM trehalose, added: 50 µM 4-methylumbelliferyl heptanoate",EC50,66 ± 8 µM
CCNC(=NC(=O)OC(C)(C)C)NC(=O)Nc1c(CC)cc(C(=O)OC)cc1CC,4'-phosphopantetheinyl transferase PptT,inhibitor,,,IC50,> 100 µM
CCCCC(=O)N(Cc1ccc(-c2ccccc2-c2nnn[nH]2)cc1)[C@H](C(=O)O)C(C)C,"Succinyl-CoA:glutarate CoA-transferase (SUGCT, Homo sapiens, UniProt Q9HAC7)","enzyme activity, inhibitor, fluorometric coupled",,"pH 7.4, 100 mM HEPES-KOH buffer",IC50,10.7 µM
CC(C)(C)c1cc(C(C)(C)CO)c(O)cc1NC(=O)c1c[nH]c2ccccc2c1=O,"CHRM3 (Homo sapiens, UniProt P20309)",,,,Ki,> 1.83 µM
CCNC(=N)NC(=O)Nc1cc(C(F)(F)F)cc(C(F)(F)F)c1,4'-phosphopantetheinyl transferase PptT,inhibitor,,,IC50,> 100 µM
COc1cc(C)[nH]c(=O)c1CNC(=O)c1c(C)n([C@H](C)C2CCN(CC(F)(F)F)CC2)c2ccccc12,"Histone-lysine N-methyltransferase EZH1, in PRC2 complex (EZH1, Homo sapiens, UniProt Q92800)","enzyme activity, inhibitor",,added: activator peptide,Ki,0.031 µM
CNC(C)C(=O)c1ccc2c(c1)OCO2 (stereo not shown),Slc6a4,,,rat,EC50,0.5 ± 0.09 µM
Clc1cccc(N2CCNCC2)c1Cl,CHRM1,"ERK1/2 phosphorylation, agonist",CHO cells,,EC50,> 20 µM
Cc1cccc([C@H](C)c2cnc[nH]2)c1C,"Cytochrome P450 2A6 (CYP2A6, Homo sapiens, UniProt P11509)",binding,,"20 min, pH 7.4, purified protein, 2% DMSO",Kd,3.47 µM
COC(=O)/C=C/C(=O)N[C@@H]1CC[C@@]2(O)[C@H]3Cc4ccc(O)c5c4[C@@]2(CCN3CC2CC2)[C@H]1O5,"Oprm1 (Rattus norvegicus, UniProt P33535)","reversible binding, radioligand saturation binding",N2a membranes,added: [3H]compound,Kd,0.00204 ± 0.00068 µM
CCNC(=N)NC(=O)Nc1ccc(Br)cc1CC,4'-phosphopantetheinyl transferase PptT,inhibitor,,,IC50,62.5 µM
CCCC(NC)C(=O)c1ccc2c(c1)OCO2 (racemic),Slc6a4,"substrate release, substrate",rat brain synaptosomes,added: [3H]5-HT 5 nM,EC50,0.65 ± 0.2 µM
CCc1cccc(CC)c1NC(=O)NC(=N)N1CCCCC1,4'-phosphopantetheinyl transferase PptT,inhibitor,,,IC50,> 100 µM
Clc1cc(Cl)cc(N2CCNCC2)c1,CHRM1,"ERK1/2 phosphorylation, agonist",CHO cells,,EC50,> 20 µM
